Experimental data pooled from the literature.
Lines come from different studies, so protocols differ. Numbers after ± are the reported error.
Cell line: Caco-2

The hydrolysed compound of CCCCCCCCCOC(=O)c1ccc(O)cc1 is reported as 20.7 ± 3.7% (5 µM, 60 min, A-B direction).
The mass recovery of CC1CN(C(C)CO)C(=O)c2cccc(N(C)C(=O)c3ccncc3)c2OC1CN(C)Cc1ccc(Oc2ccccc2)cc1 (stereo not shown) is reported as 74.6 ± 1.8% (time not given, apical pH 7.4, basolateral pH 7.4).
The recovery of CNC(=N)NC(=N)NCCCCCCNC(=N)NC(=N)NC is reported as 87.9% (5 µM, 2 h, basolateral to apical).
For COc1cc(-c2cncc(-c3ccc(N4CCN(C)CC4)cc3)c2C)cc(OC)c1OC, the Papp B-A was 14.5 ×10⁻⁶ cm/s (5 µM, 120 min, pH 7.4).
For CCCCC(CC)CNC(=N)NC(=N)NCCC (stereo not shown), the recovery was under 57.1% (5 µM, 2 h, apical to basolateral).
With N#Cc1cccc(-c2ccc(=O)n(Cc3cccc(-c4ncc(OCC5CCN(CC(=O)N6CCN(c7ccc8c(c7)C(=O)N(C7CCC(=O)NC7=O)C8=O)CC6)CC5)cn4)c3)n2)c1 (stereo not shown) the Papp B-A was 0.01 ± 0.01 ×10⁻⁶ cm/s (transwell monolayer; 2 µM, 120 min, pH 7.4, 0.1% DMSO, with: GF120918 10 µM).
CC[C@H](C)[C@@H](C(=O)N[C@@H](Cc1ccc(O)cc1)C(=O)N1CCC[C@H]1C(=O)N[C@@H](Cc1ccccc1)C(=O)O)n1cc(C(Cc2ccc(O)cc2)NC(=O)[C@@H](NC(=O)[C@H](CCCNC(=N)N)NC(=O)[C@@H](N)CC(=O)O)C(C)C)nn1 (stereo partly shown) gave a viability of 94.8% (cell growth or viability, MTT; 12.5 µM, 48 h).
With CNC(=O)C[C@H](Cc1ccc(C#N)cc1)NC(=O)c1cc(-c2ccc(CN[C@H](C)c3ccc(C)cc3)o2)ccc1Cl the Papp B-A was 6 ×10⁻⁶ cm/s (2 µM).
c1cc2nc(c1)-c1cccc(n1)CCCc1ccc(cc1)OCCCCCCOc1ccc(cc1)CCC2 has a viability of 61.9% (cell growth or viability, MTT; 100 µM, 48 h).
The hydrolysed compound of CCCCCCCCCCCCOC(=O)c1ccc(O)cc1 is reported as 0.8% (5 µM, 60 min, A-B direction).
CCC(CC)CNC(=N)NC(=N)NCCCCCCNC(=N)NC(=N)NCC(CC)CC gave a recovery of 75.3% (5 µM, 2 h, basolateral to apical).
With CNCc1ccc(-c2cc(=O)c3ccc4[nH]c(C(F)(F)F)nc4c3o2)cc1 the efflux ratio was 193.
The hydrolysed compound of CC(C)COC(=O)c1ccc(O)cc1 is reported as 17.1 ± 2.8% (5 µM, 60 min, A-B direction).
COc1cc(-c2cncc(-c3ccc(C4CCN(C)CC4)cc3)c2C)cc(OC)c1OC has a Papp B-A of 8.1 ×10⁻⁶ cm/s (5 µM, 120 min, pH 7.4).
With CCCCC(CC)CNC(=N)NC(=N)NCCCCCCCCNC(=N)NC(=N)NCC(CC)CCCC (stereo not shown) the recovery was 24.3% (5 µM, 2 h, basolateral to apical).
The hydrolysis of O=C(Oc1ccccc1)c1ccc(O)cc1 is reported as 11% (5 µM, 1 h).

Repeated from above:
With CNCc1ccc(-c2cc(=O)c3ccc4[nH]c(C(F)(F)F)nc4c3o2)cc1 the efflux ratio was 193.
With CNC(=O)C[C@H](Cc1ccc(C#N)cc1)NC(=O)c1cc(-c2ccc(CN[C@H](C)c3ccc(C)cc3)o2)ccc1Cl the Papp B-A was 6 ×10⁻⁶ cm/s (2 µM).
